# Experimental data of several laboratories.
# Cell line: NCI-H460
SMILES,test,system,conditions,scale,measurement,result
CC(=O)O[C@H]1C(=O)[C@@]2(C)[C@H]([C@H](OC(=O)c3ccccc3)[C@]3(O)C[C@H](OC(=O)[C@H](O)[C@@H](NC(=O)c4ccccc4)c4ccccc4)C(C)=C1C3(C)C)[C@]1(OC(C)=O)CO[C@@H]1C[C@@H]2O,sulforhodamine B,NSCLC cancer,NCI60 screen,,TGI,790 nM
CCCCN1CCN(c2ccc3[nH]c(-c4ccc5[nH]c(-c6ccc(C(F)(F)F)cc6)nc5c4)nc3c2)CC1,SRB,,"10 µM, 48 h",,growth percent,-79.9%
[Br-].c1ccc2cc(Cn3c[n+](Cc4ccc5ccccc5c4)c4ccccc43)ccc2c1,NCI60 five-dose screen,,,,TGI,2910 nM
CCCN1CCN(c2ccc3nc(-c4ccc5nc(-c6cc(OC)ccc6OC)[nH]c5c4)[nH]c3c2)CC1,SRB,,"10 µM, 48 h",,growth percent,100%
CN(C)C(=N)N=C(N)N,"flow cytometry, refers to: surface PD-L1",,"5000 µM, 24 h",,PD-L1 positive cells,15.7%
O=C(Nc1nnc2n3c(Cc4ccccc4)n[nH]c3nc(-c3ccc(Cl)cc3)c1-2)c1ccccc1,SRB,,"10 µM, NCI60 single-dose screen",reference: untreated,cell growth,108%
CN1CCN(c2ccc3[nH]c(-c4ccc5[nH]c(-c6ccc(C(F)(F)F)cc6)nc5c4)nc3c2)CC1,SRB,,"10 µM, 48 h",,growth percent,30.9%
Cc1cc(C)n(C(=S)[S][Au][PH](CCCCCC[PH]([Au][S]C(=S)n2nc(C)cc2C)(c2ccccc2)c2ccccc2)(c2ccccc2)c2ccccc2)n1,"cell growth, NCI-60 screen",,non-small cell lung cancer,,log10 TGI,> -4
COc1ccc(OC)c(-c2nc3ccc(-c4nc5ccc(N6CCN(C)CC6)cc5[nH]4)cc3[nH]2)c1,SRB,,"10 µM, 48 h",,growth percent,106%
COCCOCCOCc1n(Cc2ccc3ccccc3n2)c2ccccc2[n+]1Cc1ccc2ccccc2c1.[Br-],NCI60 five-dose screen,,,,TGI,1560 nM
Cc1cc(=O)[nH]c(=O)n1Cc1cn(-c2cc3ccccc3oc2=O)nn1,NCI60 single-dose screen,,10 µM,,growth percentage,98.3%
Cc1cc(=O)[nH]n1-c1nc(-c2ccc(Cl)cc2)c2c(NC(=O)c3ccccc3)nnc-2[nH]1,SRB,,"10 µM, NCI60 single-dose screen",reference: untreated,cell growth,92%
O=C1NC(c2ccccc2)(c2ccccc2)C(=O)N1Cc1cn(-c2c3ccccc3nc3ccccc23)nn1,NCI60 single-dose screen,,10 µM,,growth percentage,74.2%
CCOc1ccc(-c2nc3cc(-c4nc5cc(N6CCN(C)CC6)ccc5[nH]4)ccc3[nH]2)cc1OCC,SRB,,"10 µM, 48 h",,growth percent,17.2%
Cn1cncc1C1=CN(c2ncnc3[nH]cnc23)CCS1,,,lung cancer,,GI50,11700 nM
CCCN1CCN(c2ccc3[nH]c(-c4ccc5[nH]c(-c6cc(OC)c(OC)c(OC)c6)nc5c4)nc3c2)CC1,SRB,,"10 µM, 48 h",,growth percent,93.2%
CCn1cc(-c2cc(Cn3ccnc3)cc3c2CCN([C@H](c2cc(OC)ccn2)C2CC2)C3=O)c(C(F)(F)F)n1,"cell growth, inhibitor",,120 h,,EC50,> 30000 nM
CCCCCCCCCCCCCCCCCCOc1ccc(CC(=O)OCC[N+]2(C)CCCCC2)cc1,SRB,,10 µM,,growth inhibition,< 0%
Cc1n[nH]c2nc(-c3ccc(Cl)cc3)c3c(NC(=O)c4ccccc4)nnc-3n12,SRB,,"10 µM, NCI60 single-dose screen",reference: untreated,cell growth,110%
CCCC(CCC)C(=O)OCc1cn(-c2c3ccccc3nc3ccccc23)nn1,NCI60 single-dose screen,,10 µM,,growth percentage,105%
Cc1cc(C)n(-c2nc(-c3ccc(Cl)cc3)c3c(NC(=O)c4ccccc4)nnc-3[nH]2)n1,SRB,,"10 µM, NCI60 single-dose screen",reference: untreated,cell growth,83.2%
O=C(/C=C/C=C/C=C/C1CCCCC1)NC1=C[C@@](O)(/C=C/C=C/C=C/C(=O)NC2=C(O)CCC2=O)[C@@H]2O[C@@H]2C1=O,"cell growth, CellTiter-Glo",,78 h,,GI50,> 30000 nM
O=c1ccn(Cc2cn(-c3c4ccccc4nc4ccccc34)nn2)c(=O)[nH]1,NCI60 single-dose screen,,10 µM,,growth percentage,96.5%
O=C(Nc1nnc2n3c(nc(-c4ccc(Cl)cc4)c1-2)SCC3=O)c1ccccc1,SRB,,"10 µM, NCI60 single-dose screen",reference: untreated,cell growth,99.3%
C[C@H](Nc1ccc2c(c1)OCCn1cc(N3C(=O)OC[C@H]3C(F)F)nc1-2)C(N)=O,"cell growth, CellTiter-Glo",,120 h,,Hill coefficient GR curve,0.555

# For quick reference, copied from above:
SMILES,test,system,conditions,scale,measurement,result
COc1ccc(OC)c(-c2nc3ccc(-c4nc5ccc(N6CCN(C)CC6)cc5[nH]4)cc3[nH]2)c1,SRB,,"10 µM, 48 h",,growth percent,106%
COCCOCCOCc1n(Cc2ccc3ccccc3n2)c2ccccc2[n+]1Cc1ccc2ccccc2c1.[Br-],NCI60 five-dose screen,,,,TGI,1560 nM
Cc1cc(=O)[nH]c(=O)n1Cc1cn(-c2cc3ccccc3oc2=O)nn1,NCI60 single-dose screen,,10 µM,,growth percentage,98.3%
